Experimental data of several laboratories.
Protocols differ between the studies behind these lines.
CASP9: Caspase-9 (CASP9, Homo sapiens, UniProt P55211)

Cc1cc(C)cc(COc2cc3c(cc2OCc2cc(C)cc(C)c2)C2CC(O)(Cc4cn(CCOCCOCCNC(=O)CCCCC5SCC6NC(=O)NC65)nn4)CC(C)N2CC3)c1 (stereo not shown) — SILAC ratio (Bone marrow stromal antigen 2 (Homo sapiens, UniProt Q10589); biotinylated probe pull-down, refers to: BST2; 10 µM probe; relative to: heavy over light): 1.79
CC(=O)N[C@H](C(=O)N[C@@H](CCCC(=O)O)C(=O)N[C@@H](CCC1CCCCC1)C(=O)N[C@@H](CC(=O)O)C(=O)COC(=O)c1c(C)cccc1C)C(C)(C)C — kinact/KI (CASP9; enzyme activity, inhibitor): 86200 M⁻¹ s⁻¹
Nc1nc(SCc2ccc(Cl)cc2)nn1S(=O)(=O)c1cccc(Cl)c1 — probe labeling increase (Lysophospholipase-like protein 1 (Mus musculus, UniProt Q3UFF7); enzyme activity, activator, gel-based ABPP; purified protein; concentration not given, with: FP-rhodamine; relative to: DMSO): 2.7 fold
CC(C)Oc1cc(Cl)ccc1CNc1cc(-c2ccccc2)nc2ncnn12 — potency reduction (GPR3 (Homo sapiens, UniProt P46089, M156A); agonist, cAMP GloSensor; concentration not given, M156A mutant; relative to: wild type): 5 fold
CC(=O)N1[C@H](C(=O)N[C@@H](CC(C)C)C(=O)N[C@@H](C)C(=O)N[C@@H](CC(=O)O)C(=O)COC(=O)c2c(C)cccc2C)C[C@@H]2CCCC[C@@H]21 — kinact/KI (CASP9; enzyme activity, inhibitor): 114000 M⁻¹ s⁻¹
C=CC[C@H]1OC(=O)CCNC(=O)[C@H](C)N(C)C(=O)[C@H]([C@@H](C)CC)N(C)C(=O)[C@H]([C@@H](C)CC)NC(=O)[C@@H]2[C@@H](C)CCN2C1=O — ΔH˚ (Platelet-derived growth factor receptor beta, extracellular domain (PDGFRB, Homo sapiens, UniProt P09619); SPR, van't Hoff; 25 °C): -2.28 kcal/mol
O=C(NC1CCOCC1)c1ccc(C2CCCCC2)cc1 — hepatic clearance (liver microsome stability; human liver microsomes; 1 µM, without NADPH): 3.9 mL/min/kg
COc1cc(Nc2nccc(-c3cnn4nc(OC)ccc34)n2)cc(C(F)(F)F)c1 — remaining binding (EGFR (Homo sapiens, UniProt P00533, L861Q); binding; 1 µM): 100%
O=C1N/C(=N\c2ccc(F)cc2C(=O)O)S/C1=C\c1ccccc1 — reaction rate (DHODH (Homo sapiens, UniProt Q02127); enzyme activity, inhibitor, DCIP reduction; 1 µM; higher = more activity): -29.1 a.u.
O=C(c1ccc(C2CCCCC2)cc1)N1CCC(F)CC1 — hepatic clearance (liver microsome stability; human liver microsomes; 1 µM, without NADPH): 4.6 mL/min/kg
